Published values from different studies.
A part holds a random share of what one study measured. Changes are numbered by the printed parent chain.

Study 1
Target: RNA binding protein fox-1 homolog 2, RRM domain, GST-SBP tag (RBFOX2, Homo sapiens, UniProt O43251-10, residues 100-194)
Technique: RNA Bind-n-Seq
Molecule type: RNA
Medium: in vitro
Tested at: 365 nM
Setting: natural RNA segment, single round, ends assumed
Reference: no-protein control
Reading: higher = stronger binding
Measurement: RBNS enrichment (R)
Constant ends, left off below: GGGAGUUCUACAGUCCGACGAUC … UGGAAUUCUCGGGUGCCAA
Residues (chain): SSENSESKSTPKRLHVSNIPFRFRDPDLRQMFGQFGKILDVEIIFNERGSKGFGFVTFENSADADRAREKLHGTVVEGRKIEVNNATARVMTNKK
AAAGGUGAUAAACAUGAAGUAACUGACCCAGAGUUGGUUUAUCUUUGAGUAAACCUUUUUAGUUUUUACCUCAGCAGAGUGUUAGUAUGGCUGCUUUGCAGUCCCUGCUA: 0.286
GGACUCUGAACCAUGAUUGGAAGCAGAAAUAUAGUACGAUAGUGCAAUAGCUCAGAACCCGCCUAAACUGAAGGCCUUUUGGCUGCAUGGCUACAGCUUUCAGCCACUUA: 0.423
GCAUACUUUGGCUGAACAAACAUUUAUUGGGCACUUCAGCUCAUUAGCACCAGGCAUGUAUAGACACAUGACUCAACUUCAGCAUUUGGAGCCAGCGAGACCAGGAUCCC: 0.27
UGCUAGUCACAGCUGAAUAGCUUUGAGGAAGGAGGUGUGGCCCCCUCACACCCAGACACCCAGACACUUAACCACUCCUGCAAAGCAGAUAGAGCCUUCAGUUUGCCAUU: 0.225
ACAUCAGUUUGAUAUUCUCUUAAAGGAAAUAAAUAUUCAAGAACUGAUUAUGUUCUAACAUGAUUAUUUCAUGGUGUUACAUAGGCCUCAAUUUUUUCACAGAAAGAUUU: 0.334
UUGAGGAUCCUGACACUGAACUGAAGCGCGGGCAUUGGGUUCUCAAGGACUAACAUGCAAUCUGUGAAUUAAAAAUCUCAAUGCACUGUCUAGUGGAAGAUGAAUGGACA: 0.359
UGGGAAAACACAAAAAAUUACACAACCCAGCAACAACAAAAGAACUAGUCCUCUUAGAAUUUCUUGCGCUUUGAUUUUUUUAGGGCUUGUGCCCUGUUUCACUUAUAGGG: 0.941
UCAGUGCAUUUUAUUACUUGCUGAAACAUUCAGGCUUACAUUUCUUAUUAGUUUAGUAUUUUAAAAGAUUUAAUUUUCUGAAUGAGGCAUUUGAAUUGUACCAGCAAUGG: 1.58
GUGGACGCUCACUAAGACCGAAACUGGAGAAGGGCUGGGCCUGGACCUAACAUUGGGGACUUAAAUGCCUUCUUAUCCAAUAUAUCUUCUCAGAUGGGAUGACUGCGGGU: 0.248
GGUGACUCAGCCCUGAUCCCGCCUCAUCUCGCUGCUCCGUGCUGCACUAGCAUCCAGAGUCAGAGUUGGUCUGGUGGCUCCAGCCCCACGUGGUAGGCUCCACACUGGGC: 0.231
GACGGAGGUCAGGUCUUCCUCUUUCCUGAGACUGGAUCUGUUCAAACAGCAAACGCCCACAGAUGGCCCAGAGGUGGUGGUAGUCAGGGUGUGUGGGUGUUUUUAGGGUU: 1.47
UCCAGGUUGUGGGCUAUGGUAUUUGGGAUCCUGCAAAAGCACAUACACGUUUGUUCUAUGUUGUAAGUGUCACUCUGAAAGAAGUUUAACAGUAUCUGGUUUUUAAAAUA: 1.48

Study 2
Target: Max dimerization protein 1, bHLH-zipper, MAX partner unstated (MXD1, Homo sapiens, UniProt Q05195, residues 56-136)
Technique: protein-binding microarray
Molecule type: double-stranded DNA, one strand shown
Medium: in vitro
Tested at: not given
Setting: k-mer, scored over probes, only values ≥0.25
Reading: higher = stronger binding
Measurement: E-score
Target sequence (chain): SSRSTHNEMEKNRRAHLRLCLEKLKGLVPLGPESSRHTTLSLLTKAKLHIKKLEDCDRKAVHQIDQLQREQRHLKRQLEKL
ACCCATGC: 0.391
CCCCGTGC: 0.377
CATGTGTC: 0.45
GAACATGC: 0.332
GACACGCC: 0.325
ACCCACCA: 0.295
AGCAATGC: 0.255
CACGCAAA: 0.264
CATGTCTC: 0.364
ACGCACAC: 0.302
GCACATGA: 0.433
ATGCGTGC: 0.349
CGTGGGAC: 0.344
ACATGGCC: 0.317
GCGTGCCC: 0.346
CGTGACAG: 0.284
CCTCGTGC: 0.441

Study 3
Target: Histone acetyltransferase KAT6A, winged helix 1, GST fusion (KAT6A, Homo sapiens, UniProt Q92794, residues 1-85)
Technique: protein binding microarray
Molecule type: double-stranded DNA, one strand shown
Medium: in vitro
Tested at: not given
Setting: 8-mer, flanks averaged, mean of 2 arrays, mostly near background
Reference: not given
Reading: higher = stronger binding
Measurement: E-score
Residues (chain): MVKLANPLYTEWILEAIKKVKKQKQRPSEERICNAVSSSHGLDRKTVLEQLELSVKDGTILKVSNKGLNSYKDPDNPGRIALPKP
GAATCCGC: 0.183
GACAAGAC: 0.0887
ACGTTCAC: 0.0469
CGGATAAA: 0.0945
CCTTACAA: -0.0838
GTTCTCGA: -0.269
CCCTCATA: -0.248
AAGTCAAT: -0.11
CCTCGGGA: 0.0733
TTAGTCAA: 0.00808
CGACAGAA: 0.0679
AGTGAGGC: -0.216
ACGAAGGC: 0.0271
ACACCCAA: -0.182
CTCTGTCC: 0.0125
GGTTAACC: -0.0316
CGCGTGCA: 0.238
CAAGGGTG: -0.108
CGCTTTTA: 0.288
AGCCTTAG: -0.222
CACCGTGA: 0.0716
CAAACGAC: -0.148
CAACTTAA: -0.19
AGGAAGAA: -0.183
GTTGCCTA: -0.0846

Study 4
Target: CCNE1, cyclin fold, Cln2 fusion (human)
Technique: yeast growth competition, sequencing
Medium: yeast
Setting: strong parent motif
Reference: not given
Reading: higher = stronger binding
Measurement: normalised enrichment score
Parent: RBL1 docking peptide (human); GSAKRRLFGEDPP; partner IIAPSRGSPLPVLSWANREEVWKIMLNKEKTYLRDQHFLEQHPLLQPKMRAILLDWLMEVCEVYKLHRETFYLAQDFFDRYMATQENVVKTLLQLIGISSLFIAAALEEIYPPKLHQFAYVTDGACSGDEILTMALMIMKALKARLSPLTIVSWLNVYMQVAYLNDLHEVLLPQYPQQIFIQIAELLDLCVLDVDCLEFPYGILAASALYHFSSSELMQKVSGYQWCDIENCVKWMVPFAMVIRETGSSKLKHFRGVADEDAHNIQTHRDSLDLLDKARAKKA
E10S: 5.73
P13C: 5.94
R5N: 0.505
L7F: 0.0513
E10I: 5.11
P13G: 5.76
G9Q: 6.93
G1D: 6.11
R5D: 0.476
S2D: 5.11
K4C: 5.09
A3C: 6.1
R5K F8L: -0.00477
A3S: 1.7
E10K: 3.53
D11L: 4.68
R5L: 0.76
E10Y: 4.08
R6A: 2.52
F8M: 0.35
A3M: 1.19
G9Y: 6.32
K4E: 0.618
R6Q: 3.98
G9C: 7.51

A few entries again (study 4):
P13C: 5.94
R5N: 0.505
L7F: 0.0513
E10I: 5.11
P13G: 5.76
G9Q: 6.93
G1D: 6.11
R5D: 0.476
S2D: 5.11
